Measurements of several laboratories.
Each line is one published result; not all experiments were run side by side.
ADRA2B: Alpha-2B adrenergic receptor (ADRA2B, Homo sapiens, UniProt P18089)
UniProt P18089, sequence (whole entry, looked up): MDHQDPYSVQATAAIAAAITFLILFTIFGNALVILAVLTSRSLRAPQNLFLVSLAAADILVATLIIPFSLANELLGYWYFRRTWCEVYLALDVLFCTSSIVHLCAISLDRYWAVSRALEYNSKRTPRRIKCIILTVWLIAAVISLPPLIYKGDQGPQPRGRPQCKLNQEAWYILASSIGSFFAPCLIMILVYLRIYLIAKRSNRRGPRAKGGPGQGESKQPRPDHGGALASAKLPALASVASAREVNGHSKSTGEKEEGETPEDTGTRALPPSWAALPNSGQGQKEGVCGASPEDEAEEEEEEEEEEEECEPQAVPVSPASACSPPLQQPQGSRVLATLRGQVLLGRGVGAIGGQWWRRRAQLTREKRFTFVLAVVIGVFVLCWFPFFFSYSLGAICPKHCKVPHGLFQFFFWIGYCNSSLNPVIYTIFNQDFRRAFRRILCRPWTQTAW
UniProt P35462, sequence (whole entry, looked up): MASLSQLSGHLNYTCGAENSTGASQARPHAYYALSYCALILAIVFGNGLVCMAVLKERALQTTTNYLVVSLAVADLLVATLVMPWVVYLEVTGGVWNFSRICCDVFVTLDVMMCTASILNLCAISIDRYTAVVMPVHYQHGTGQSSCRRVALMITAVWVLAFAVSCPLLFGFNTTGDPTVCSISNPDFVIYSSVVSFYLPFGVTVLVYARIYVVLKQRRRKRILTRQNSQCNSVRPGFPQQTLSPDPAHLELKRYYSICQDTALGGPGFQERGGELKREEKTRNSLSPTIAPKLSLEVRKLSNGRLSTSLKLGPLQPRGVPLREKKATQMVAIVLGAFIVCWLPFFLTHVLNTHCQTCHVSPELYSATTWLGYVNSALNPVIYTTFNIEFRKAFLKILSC
UniProt O00750, sequence (whole entry, looked up): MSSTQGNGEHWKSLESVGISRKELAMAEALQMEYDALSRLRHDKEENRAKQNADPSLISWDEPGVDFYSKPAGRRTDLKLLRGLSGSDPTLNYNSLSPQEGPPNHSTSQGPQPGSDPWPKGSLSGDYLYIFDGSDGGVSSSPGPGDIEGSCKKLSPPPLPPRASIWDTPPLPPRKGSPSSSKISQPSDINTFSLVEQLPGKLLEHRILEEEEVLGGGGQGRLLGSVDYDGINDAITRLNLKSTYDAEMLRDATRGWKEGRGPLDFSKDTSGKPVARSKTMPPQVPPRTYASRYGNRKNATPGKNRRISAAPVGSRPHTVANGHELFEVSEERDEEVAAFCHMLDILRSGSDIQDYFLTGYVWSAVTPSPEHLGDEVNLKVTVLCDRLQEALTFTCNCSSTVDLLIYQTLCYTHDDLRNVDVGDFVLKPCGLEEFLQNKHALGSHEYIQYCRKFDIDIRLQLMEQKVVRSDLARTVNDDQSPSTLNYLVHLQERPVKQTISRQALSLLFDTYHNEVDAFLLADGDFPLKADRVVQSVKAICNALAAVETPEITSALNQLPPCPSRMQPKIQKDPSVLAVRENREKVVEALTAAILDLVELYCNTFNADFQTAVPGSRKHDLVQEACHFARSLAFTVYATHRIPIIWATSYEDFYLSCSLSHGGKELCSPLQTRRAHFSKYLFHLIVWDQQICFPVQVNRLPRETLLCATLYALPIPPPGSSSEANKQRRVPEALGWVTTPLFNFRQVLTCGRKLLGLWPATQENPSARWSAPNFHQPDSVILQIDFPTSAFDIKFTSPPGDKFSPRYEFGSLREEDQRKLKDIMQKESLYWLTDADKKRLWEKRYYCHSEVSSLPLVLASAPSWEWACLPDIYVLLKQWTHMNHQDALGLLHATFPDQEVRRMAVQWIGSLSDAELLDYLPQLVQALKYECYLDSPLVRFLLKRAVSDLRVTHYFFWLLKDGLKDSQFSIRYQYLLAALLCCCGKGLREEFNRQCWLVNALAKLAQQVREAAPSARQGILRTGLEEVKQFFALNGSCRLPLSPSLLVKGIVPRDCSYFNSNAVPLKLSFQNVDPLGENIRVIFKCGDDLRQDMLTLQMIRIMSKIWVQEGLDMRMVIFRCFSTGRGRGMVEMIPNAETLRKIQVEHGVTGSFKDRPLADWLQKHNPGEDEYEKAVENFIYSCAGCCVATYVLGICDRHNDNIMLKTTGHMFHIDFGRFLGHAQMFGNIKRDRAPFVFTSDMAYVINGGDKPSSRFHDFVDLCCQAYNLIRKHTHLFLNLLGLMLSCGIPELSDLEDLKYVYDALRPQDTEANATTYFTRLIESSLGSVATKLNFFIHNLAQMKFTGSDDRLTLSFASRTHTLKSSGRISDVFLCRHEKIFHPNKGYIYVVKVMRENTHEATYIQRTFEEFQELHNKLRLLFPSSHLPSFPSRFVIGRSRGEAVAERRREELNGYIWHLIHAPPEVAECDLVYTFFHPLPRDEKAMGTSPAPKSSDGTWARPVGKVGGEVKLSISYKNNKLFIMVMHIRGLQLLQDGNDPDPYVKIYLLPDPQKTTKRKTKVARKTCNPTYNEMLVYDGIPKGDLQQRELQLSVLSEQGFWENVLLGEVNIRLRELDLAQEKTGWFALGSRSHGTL
UniProt Q9UQL6, sequence (whole entry, looked up): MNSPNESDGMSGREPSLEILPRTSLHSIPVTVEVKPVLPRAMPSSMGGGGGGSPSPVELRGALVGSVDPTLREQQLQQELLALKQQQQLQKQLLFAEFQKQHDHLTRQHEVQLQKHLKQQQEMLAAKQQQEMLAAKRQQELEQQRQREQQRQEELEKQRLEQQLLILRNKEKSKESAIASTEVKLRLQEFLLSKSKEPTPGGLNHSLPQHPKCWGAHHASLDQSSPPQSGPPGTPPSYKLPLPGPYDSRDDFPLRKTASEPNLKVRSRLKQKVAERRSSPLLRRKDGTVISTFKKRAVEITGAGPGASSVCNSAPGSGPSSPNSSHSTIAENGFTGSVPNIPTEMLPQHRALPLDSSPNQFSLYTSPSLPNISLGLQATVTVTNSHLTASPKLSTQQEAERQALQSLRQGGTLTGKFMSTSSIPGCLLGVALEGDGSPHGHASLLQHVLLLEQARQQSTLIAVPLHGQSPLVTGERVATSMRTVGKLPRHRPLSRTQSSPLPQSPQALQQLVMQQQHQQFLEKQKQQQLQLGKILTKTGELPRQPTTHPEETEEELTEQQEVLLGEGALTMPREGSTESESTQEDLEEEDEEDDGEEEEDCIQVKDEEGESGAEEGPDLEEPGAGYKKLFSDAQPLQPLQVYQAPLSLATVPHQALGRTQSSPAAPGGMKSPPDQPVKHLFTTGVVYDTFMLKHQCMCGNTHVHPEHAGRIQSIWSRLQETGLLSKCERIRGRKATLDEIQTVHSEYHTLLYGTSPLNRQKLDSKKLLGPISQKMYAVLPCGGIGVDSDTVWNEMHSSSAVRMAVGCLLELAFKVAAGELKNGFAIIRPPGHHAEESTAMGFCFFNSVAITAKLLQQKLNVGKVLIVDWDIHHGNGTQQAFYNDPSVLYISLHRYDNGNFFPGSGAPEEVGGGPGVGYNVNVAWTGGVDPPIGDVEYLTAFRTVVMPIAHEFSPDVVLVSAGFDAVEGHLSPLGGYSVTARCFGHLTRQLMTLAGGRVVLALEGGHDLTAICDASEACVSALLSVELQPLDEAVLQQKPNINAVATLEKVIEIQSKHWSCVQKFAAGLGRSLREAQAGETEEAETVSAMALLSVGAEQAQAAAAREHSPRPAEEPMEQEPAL
UniProt Q9BY41, sequence (whole entry, looked up): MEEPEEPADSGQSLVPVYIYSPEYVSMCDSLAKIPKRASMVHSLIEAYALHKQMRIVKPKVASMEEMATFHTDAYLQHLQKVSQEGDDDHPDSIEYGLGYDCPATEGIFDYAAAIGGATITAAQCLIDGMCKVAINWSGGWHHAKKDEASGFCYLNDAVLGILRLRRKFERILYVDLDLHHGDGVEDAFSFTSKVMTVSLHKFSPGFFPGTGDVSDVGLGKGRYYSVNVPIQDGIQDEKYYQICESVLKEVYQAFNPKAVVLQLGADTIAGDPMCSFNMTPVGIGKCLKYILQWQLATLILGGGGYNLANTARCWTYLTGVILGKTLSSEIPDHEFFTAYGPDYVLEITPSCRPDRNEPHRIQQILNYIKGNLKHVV
UniProt O96017, sequence (whole entry, unmodified, looked up): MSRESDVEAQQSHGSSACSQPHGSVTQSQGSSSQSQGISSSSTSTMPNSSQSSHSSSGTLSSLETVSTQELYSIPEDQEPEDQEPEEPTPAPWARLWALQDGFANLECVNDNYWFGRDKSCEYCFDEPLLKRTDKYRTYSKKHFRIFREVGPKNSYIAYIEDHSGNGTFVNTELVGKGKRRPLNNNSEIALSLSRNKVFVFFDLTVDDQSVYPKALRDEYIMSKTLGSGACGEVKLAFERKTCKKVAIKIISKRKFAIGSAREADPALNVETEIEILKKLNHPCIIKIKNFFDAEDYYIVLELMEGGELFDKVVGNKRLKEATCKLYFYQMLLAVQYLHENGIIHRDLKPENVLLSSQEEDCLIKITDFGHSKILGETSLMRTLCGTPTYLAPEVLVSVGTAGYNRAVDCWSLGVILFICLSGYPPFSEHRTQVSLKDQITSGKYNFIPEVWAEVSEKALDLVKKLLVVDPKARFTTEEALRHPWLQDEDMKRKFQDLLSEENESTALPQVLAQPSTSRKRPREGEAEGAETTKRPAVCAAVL

C=CCOc1ccc(-c2c(C)[nH]c(C)c(Br)c2=O)cc1  IC50 (HEK293; cell growth or viability): > 10 µM
CCc1c(C)c2ccc(OCC(=O)NN=Cc3ccc([N+](=O)[O-])cc3)cc2oc1=O  viability (PC-3; cell growth or viability, MTT; 250 µg/mL): 8.06%
CNc1ncc2c(/C=C/C(=O)N3CCC(OC)CC3)nn(Cc3ccccc3OC)c2n1  EC50 (FLO-1; cell growth or viability, resazurin; 5 days): 6.91 µM
Cc1cc(NC2CCCC2)nc(Nc2ccccc2)n1  IC50 (HEK293; cell growth or viability): > 10 µM
Cc1cc(Oc2ncccc2CN2CCN(c3ccc(C(F)(F)F)cc3[N+](=O)[O-])CC2)ccc1-c1c(C)c(=O)[nH]c(=O)n1C  Ki (ADRA2B; ligand displacement, radioligand): 2.59 µM
Cc1cnc(Cn2nc(-c3ccc(CO)o3)c3ccccc32)s1  inhibition (RBE; cell growth or viability, ATP luminescence; 46 µM, 72 h): 81%
CN(C)CCNC(=O)c1ccc(-c2nc3ccc4[nH]ncc4c3c3c2CCCC3)cc1  GI50 (Kasumi 1; cell growth or viability; 72 h): 0.351 µM
CCNC(=S)NNC(=O)COc1ccc2c(C)c(CC)c(=O)oc2c1C  viability (PC-3; cell growth or viability, MTT; 1000 µg/mL): 2.75%
CCC(=CCc1c(O)cc2c(c1O)C(=O)C[C@@H](c1ccccc1O)O2)CC  inhibition (HeLa; cell growth or viability, MTT; 7.5 µM, 48 h): 0.481%
Cc1cc(C)n(C(=S)[S][Au][PH](CCCCCC[PH]([Au][S]C(=S)n2nc(C)cc2C)(c2ccccc2)c2ccccc2)(c2ccccc2)c2ccccc2)n1  GI50 (SR; cell growth or viability): 0.0341 µM
CC(=O)Nc1cccc(-n2c(=O)n(C3CC3)c(=O)c3c(Nc4ccc(I)cc4F)n(C)c(=O)c(C)c32)c1  IC50 (MB002; cell growth or viability; 7 days): > 10 µM
C=C(COCc1ccc(F)cc1)[C@@H]1CC[C@@H](C)C[C@H]1OCc1ccc(F)cc1  inhibition (A2780; cell growth or viability, MTT; 10 µM, 72 h): 24%
CCCCCCCc1c(C)[nH]c2cc(OC)ccc2c1=O  IC50 (HEK293; cell growth or viability): > 10 µM
CNc1ncc2c(/C=C/C(=O)N3CCC(OC)CC3)nn(Cc3cccc(C(F)(F)F)c3)c2n1  EC50 (FLO-1; cell growth or viability, resazurin; 5 days): 1.01 µM
CCN(Cc1c(F)cccc1Cl)c1ccc(CO)c(Cl)c1  inhibition (RBE; cell growth or viability, ATP luminescence; 46 µM, 72 h): 54%
Cc1cc(OS(=O)(=O)Oc2ccc(Oc3ccccc3)cc2)cc(C(=O)NO)c1  IC50 (Histone deacetylase 8 (HDAC8, Homo sapiens, UniProt Q9BY41); enzyme activity, inhibitor, fluorescence): 4.71 µM
Cc1cc(Oc2ncccc2CN2CCN(c3ccc([N+](=O)[O-])cc3Cl)CC2)ccc1-c1c(C)c(=O)[nH]c(=O)n1C  Ki (ADRA2B; ligand displacement, radioligand): 2.32 µM
Cc1cc(NS(=O)(=O)c2ccc(N=NN(C)O)cc2)no1  inhibition (ABTS scavenging; 20 µg/mL): 26.2%
CC(=NNC(=O)c1ccccc1Cl)c1ccc(Nc2nnc(-c3ccc(Cl)cc3)c3ccccc23)cc1  viability (MCF7; cell growth or viability, MTT; 0.625 µM, 24 h): 99.8%
COc1cc(-c2cncc3c2CN(C)Cc2cc(N4CCNCC4)ccc2-3)cc(OC)c1OC  remaining activity (Serine/threonine-protein kinase Chk2 (CHEK2, Homo sapiens, UniProt O96017, I157T); enzyme activity, inhibitor; 1 µM): 97%
CC(=NNC(=O)c1cccnc1)c1ccc(Nc2nnc(-c3ccc(Cl)cc3)c3ccccc23)cc1  viability (MCF7; cell growth or viability, MTT; 5 µM, 24 h): 4.83%
C[C@@H]1CC[C@@H]([C@](O)(CNCc2cccc3ccccc23)COCc2ccccc2)[C@H](OCc2ccccc2)C1  inhibition (HeLa; cell growth or viability, MTT; 10 µM, 72 h): 97.1%
Cc1c(Cc2ccccc2)c(=O)oc2c(C)c(OCC(=O)NN=Cc3ccc([N+](=O)[O-])cc3)ccc12  viability (PC-3; cell growth or viability, MTT; 1000 µg/mL): 4.06%
CN(C)CCNC(=O)c1ccc(-c2nc3ccc4[nH]ncc4c3c3c2CCCCC3)c(F)c1  GI50 (ML-2; cell growth or viability; 72 h): 0.283 µM
OCc1ccc(-c2nn(Cc3ccccc3)c3cnccc23)o1  inhibition (RBE; cell growth or viability, ATP luminescence; 46 µM, 72 h): 17%
CC(=NNC(N)=S)c1ccc(Nc2nnc(-c3ccc(Cl)cc3)c3ccccc23)cc1  viability (MCF7; cell growth or viability, MTT; 10 µM, 24 h): 9.65%
C[C@@H]1CC[C@@H]([C@](C)(O)CNCc2cccc3ccccc23)[C@H](OCc2ccccc2)C1  inhibition (HeLa; cell growth or viability, MTT; 10 µM, 72 h): 67.8%
CC(=O)N1CCC(Nc2cc(C(=O)NC[C@H](O)CN3CCc4ccccc4C3)ncn2)CC1  IC50 (MB002; cell growth or viability; 7 days): 0.0984 µM
O=C(Nc1ccc(Oc2nnc(-c3ccc(Cl)cc3)c3ccccc23)cc1)c1cccc([N+](=O)[O-])c1  cell death (MCF7; cell growth or viability, MTT; 0.625 µM): 90.2%
COc1ccc(CNC[C@@](C)(O)[C@@H]2CC[C@@H](C)C[C@H]2OCc2ccccc2)cc1  inhibition (A2780; cell growth or viability, MTT; 30 µM, 72 h): 93.9%
CNc1ncc2c(/C=C/C(=O)N3CCC(COC)CC3)nn(Cc3cccc(C)c3)c2n1  EC50 (FLO-1; cell growth or viability, resazurin; 5 days): > 30 µM
COc1ccc(CNC[C@](O)(COCc2ccc(OC)cc2)[C@@H]2CC[C@@H](C)C[C@H]2OCc2ccc(OC)cc2)cc1  inhibition (A2780; cell growth or viability, MTT; 30 µM, 72 h): 99.7%
Cc1ccc(NS(=O)(=O)c2c(C)[nH]c(C)c2C(=O)N2CCCC2C)cc1Cl (stereo not drawn)  IC50 (D(3) dopamine receptor (DRD3, Homo sapiens, UniProt P35462); β-arrestin recruitment, antagonist): 40 µM
CCC(=CCc1c(O)cc2c(c1O)C(=O)CC(c1ccc(O)cc1)O2)CC (stereo in doubt)  inhibition (HeLa; cell growth or viability, MTT; 3.125 µM, 48 h): 7.2%
CNc1ncc2c(/C=C/C(=O)N3CCC(OC)CC3)nn(Cc3ccccc3C(F)(F)F)c2n1  EC50 (FLO-1; cell growth or viability, resazurin; 5 days): 5.16 µM
OCc1ccc(N(Cc2ccc(F)cc2)C2CCC2)cc1Cl  inhibition (RBE; cell growth or viability, ATP luminescence; 46 µM, 72 h): 84%
O=C(NO)c1cncc(OS(=O)(=O)Oc2ccc(C(F)(F)F)cc2)c1  IC50 (Histone deacetylase 5 (HDAC5, Homo sapiens, UniProt Q9UQL6); enzyme activity, inhibitor, fluorescence): 5.97 µM
O=C(C=Cc1ccccc1)Nc1ccc(Oc2nnc(-c3ccc(Cl)cc3)c3ccccc23)cc1  viability (MCF7; cell growth or viability, MTT; 0.625 µM, 24 h): 94.7%
C=CC(=O)N1CCC(COCC(=O)N2CCN(c3nc(-c4cnc(N)nc4C(F)F)nc(N4CCOC[C@@H]4C)n3)CC2)CC1  remaining binding (Phosphatidylinositol 4-phosphate 3-kinase C2 domain-containing subunit beta (PIK3C2B, Homo sapiens, UniProt O00750); binding, competition with immobilised ligand; 1 µM): 46%
C=CCNC(=S)NNC(=O)COc1ccc2c(C)c(CC)c(=O)oc2c1C  viability (PC-3; cell growth or viability, MTT; 125 µg/mL): 24.3%
Cc1ccc(C(CS(=O)(=O)c2ccccc2)=NNc2nc(-c3ccc(OCCCCOc4ccc(-c5csc(NN=C(CS(=O)(=O)c6ccccc6)c6ccc(C)cc6)n5)cc4)cc3)cs2)cc1  viability (WM 266-4; cell growth or viability, MTT; 6.3 µM, 48 h): 56%
COc1ccc2nc3cc(Cl)ccc3c(Nc3ccc(C(=O)O)cc3)c2c1  IC50 (HEK293; cell growth or viability): > 10 µM
Cc1ccc(N(O)N=Nc2ccc(S(=O)(=O)Nc3onc(C)c3C)cc2)cc1  inhibition (ABTS scavenging; 20 µg/mL): 26.2%
O=C(Nc1ccccc1)Nc1ccc(Oc2nnc(-c3ccc(Cl)cc3)c3ccccc23)cc1  viability (MCF7; cell growth or viability, MTT; 5 µM, 24 h): 3.19%
CC(C)N(Cc1cnc2nc(N)nc(N)c2n1)c1ccc(Cl)c(Cl)c1  IC50 (HEK293; cell growth or viability): > 10 µM
CNC(=O)c1cc(Oc2ccc(NC(=O)Nc3ccc(Cl)c(C(F)(F)F)c3)cc2)ccn1  viability (WM 266-4; cell growth or viability, MTT; 0.4 µM, 48 h): 67.6%
Cc1[nH]c(C)c(-c2ccc(CCc3ccc(N)cc3)cc2)c(=O)c1Cl  IC50 (HEK293; cell growth or viability): > 10 µM
CCCOc1ccc2c(C)c(CC)c(=O)oc2c1C  viability (PC-3; cell growth or viability, MTT; 500 µg/mL): 9.47%
CCOC1CCN(C(=O)/C=C/c2nn(Cc3cccc(C)c3)c3nc(NC)ncc23)CC1  EC50 (FLO-1; cell growth or viability, resazurin; 5 days): 3.59 µM
COc1cc2nccc(Oc3ccc(NC(=O)C4(C(=O)Nc5ccc(F)cc5)CC4)cc3)c2cc1OC  IC50 (MB002; cell growth or viability; 7 days): > 10 µM
Cc1ccc2[nH]c3ccccc3c(=O)c2c1  IC50 (HEK293; cell growth or viability): > 10 µM

Excerpt of the above:
CNC(=O)c1cc(Oc2ccc(NC(=O)Nc3ccc(Cl)c(C(F)(F)F)c3)cc2)ccn1  viability (WM 266-4; cell growth or viability, MTT; 0.4 µM, 48 h): 67.6%
Cc1[nH]c(C)c(-c2ccc(CCc3ccc(N)cc3)cc2)c(=O)c1Cl  IC50 (HEK293; cell growth or viability): > 10 µM
CCCOc1ccc2c(C)c(CC)c(=O)oc2c1C  viability (PC-3; cell growth or viability, MTT; 500 µg/mL): 9.47%
CCOC1CCN(C(=O)/C=C/c2nn(Cc3cccc(C)c3)c3nc(NC)ncc23)CC1  EC50 (FLO-1; cell growth or viability, resazurin; 5 days): 3.59 µM
COc1cc2nccc(Oc3ccc(NC(=O)C4(C(=O)Nc5ccc(F)cc5)CC4)cc3)c2cc1OC  IC50 (MB002; cell growth or viability; 7 days): > 10 µM
Cc1ccc2[nH]c3ccccc3c(=O)c2c1  IC50 (HEK293; cell growth or viability): > 10 µM
